# Published values of several laboratories.
# Protocols differ between the studies behind these lines. ± gives the spread as reported.
Compound,test,system,setting,scale,measurement,value
Cc1cc(C)nc(NC(=S)N2CCN(Cc3ccc(C(F)(F)F)cc3)CC2)c1,,"NOD.SCID mice MDA-MB-468 orthotopic xenograft, tumour",dose not given,,serine concentration,no effect
CC(C)[C@H](N)C(=O)N1CCC[C@H]1C(=O)NCC(=O)NCC(=O)O,"diketopiperazine formation, transition state theory",1-propanol,"concentration not given, 70, 80, 90 °C, 0.5% acetic acid",,enthalpy of activation,19.6 ± 0.239 kcal/mol
CCCc1nc2cc(C(=O)N3CCC4(CC3)CC(=O)c3cc5c(cc3O4)OC(C)(C)CC5)cc(C)c2[nH]1,"Sirius red staining, measured: Col1a1 mRNA, collagen","C57BL/6J male mouse, HFD-induced NASH","intragastric, dose not given, daily",,liver fibrosis,inhibited
CCCCCCCOC(=O)Cc1c(C)n(C(=O)c2ccc(Cl)cc2)c2ccc(OC)cc12,hot plate test,BALB/c mice,"75 mg/kg, 120 min",,latency of nociceptive response,16.5 ± 1.14 s
FC(F)(F)Oc1ccc(/N=c2\oc3ccccc3cc2-c2ccccc2)cc1,,"rat, formalin paw oedema","intraperitoneal, 10 mg/kg, 1 h",,oedema reduction,27.9 ± 2.5%
NC(=S)N/N=C1\c2ccccc2-c2nc3cc(F)ccc3nc21,,mice with STZ-induced diabetes,"oral, 25 mg/kg, 216 h, day 9",,blood glucose,213 ± 10.3 mg/dL
CC(C)CN(CC(C)C)C(=O)/C=C/C=C/c1ccc2c(c1)OCO2,elevated plus maze,C57BL/6N mice,"ip, 1 mg/kg, 30 min before test",baseline: total time,time in open arms,45.1 ± 5.7%
COc1cc(CN2CCN(c3ccccc3[N+](=O)[O-])CC2)c2cc3[n+](cc2c1O)CCc1cc2c(cc1-3)OCO2,"ferric reducing power, FRAP",,"10 µg/mL, 30 min",higher is greater reducing power,FRAP absorbance,0.004 ± 0.48 a.u.
CCCCOc1nc(N)c2[nH]c(=O)n(CCCN(CCCN3CCOCC3)Cc3cccc(CC(=O)OC)c3)c2n1,,"rat, Brown Norway, ovalbumin-sensitised","intratracheal, 1 mg/kg once weekly, eight doses, challenge 26 days after last dose",,BAL IL-13,inhibited
O=C(CN1CCC(O)CC1)Nc1nc(-c2ccccc2)cs1,Fe3+/ascorbic acid system,,"concentration not given, 30 min, 37 °C, together with: DMSO 33 mM",,hydroxyl radical scavenging,75.3%
CCCOC(=O)Cc1c(C)n(C(=O)c2ccc(Cl)cc2)c2ccc(OC)cc12,hot plate test,BALB/c mice,"100 mg/kg, 60 min",,latency of nociceptive response,17.8 ± 0.96 s
C=C(c1ncc(C(=O)O)cn1)c1cc2c(cc1C)C(C)(C)CCC2(C)C,"RNA sequencing, measured: Acot1 mRNA","rat, brain","dose not given, 24 h, single dose",baseline: vehicle,log2 fold change,-0.93
CCCCCCCCCCCCCCCC(=O)NCCCC[C@H](NC(=O)[C@H](CCC(=O)O)NC(=O)[C@H](Cc1ccc(O)cc1)NC(=O)[C@H](CCC(=O)O)NC(=O)COCC(=O)NCCCOCCOCCOCCCNC(=O)[C@H](Cc1ccccc1)NC(=O)[C@H](CC(N)=O)NC(=O)[C@H](Cc1c[nH]cn1)NC(=O)[C@@H](NC(=O)[C@H](CC(=O)O)NC(=O)[C@H](CCC(N)=O)NC(=O)[C@H](CC(C)C)NC(=O)[C@H](CCCCN)NC(=O)[C@H](CCCCN)NC(=O)[C@H](CCCNC(=N)N)NC(=O)[C@H](CC(C)C)NC(=O)[C@H](Cc1c[nH]c2ccccc12)NC(=O)[C@H](CCC(=O)O)NC(=O)[C@@H](NC(=O)[C@H](CCCNC(=N)N)NC(=O)[C@H](CCC(=O)O)NC(=O)[C@H](CCSC)NC(=O)[C@H](CO)NC(=O)[C@H](CC(N)=O)NC(=O)[C@H](CC(C)C)NC(=O)[C@H](Cc1c[nH]cn1)NC(=O)[C@H](CCCCN)NC(=O)CNC(=O)[C@H](CC(C)C)NC(=O)[C@H](CC(N)=O)NC(=O)[C@H](Cc1c[nH]cn1)NC(=O)[C@H](CCSC)NC(=O)[C@H](CC(C)C)NC(=O)[C@H](CCC(N)=O)NC(=O)[C@@H](NC(=O)[C@H](CCC(=O)O)NC(=O)[C@H](CO)NC(=O)[C@@H](NC(=O)[C@@H](N)CO)C(C)C)[C@@H](C)CC)C(C)C)C(C)C)C(=O)N[C@@H](CCC(=O)O)C(=O)N[C@@H](Cc1ccc(O)cc1)C(=O)N[C@@H](CCC(=O)O)C(N)=O,measured: Ca2+,"CD-1 mice, blood","sc, 10 nmol/kg",,time to peak calcemic response,6 h
N[C@@H](Cc1c[nH]cn1)C(=O)N1CCC[C@H]1C(=O)NCC(=O)NCC(=O)O,"diketopiperazine formation, transition state theory",1-propanol,"concentration not given, 70, 80, 90 °C, 0.5% acetic acid",,enthalpy of activation,19.8 ± 0.717 kcal/mol
COc1c2c(cc3oc(C)cc(=O)c13)O[C@H](C(C)(C)O[C@@H]1O[C@H](CO)[C@@H](O)[C@H](O)[C@H]1O)C2,analgesia,mouse,"oral, 4 mg/kg, 2 h",,hot plate latency,10.1 ± 1.44 s
C=C(c1ccc(C(=O)O)c(F)c1)c1cc2c(cc1C)C(C)(C)C=CC2(C)C,"RNA sequencing, measured: Sfrp5","rat, brain","dose not given, 24 h",baseline: vehicle,log2 fold change,0.6
CCCCCCCCCCCCCCc1sc(NC(=O)CCN2CCC(O)CC2)nc1-c1ccccc1,Fe3+/ascorbic acid system,,"concentration not given, 30 min, 37 °C, together with: DMSO 33 mM",,hydroxyl radical scavenging,40%
Cc1nc(C)c(C=[N+]([O-])C(C)(C)C)nc1C,"Western blot, measured: HO-1","mouse, MPTP model, substantia nigra nuclei",30 mg/kg,,protein level increase,25.6%
C=CC(=O)Nc1cccc(-c2cnc3[nH]cc(C(=O)NC(C)(C)C)c3n2)c1,,"mouse, NK-S1 xenograft, tumour","ip, 50 mg/kg",,onset of phospho-STAT5 suppression,≤ 2 h
COc1ccc(C2CC(c3ccc(C)cc3)=Nc3ccccc3S2)cc1OC (stereo not drawn),,"Wistar rat, STZ-induced diabetes, serum","20 mg/kg, 28 days",,HDL cholesterol,58.4 mg/dL
Oc1ccc2nc1CNCCNCCNC2,pH-potentiometric titration,,"298 K, I 0.15 M NaCl, together with: Zn2+",,log beta ML,16.8
COc1cc2c(C=C3C(=O)Nc4ccccc43)c[nH]c2cc1C,,"mouse, 12 tumour cell lines in fibres","intraperitoneal, 150 and 100.5 mg/kg daily, 4 days",direction not given,hollow fiber SC score,6
COc1ccc(OC)c(C(=Cc2ccc(O)c(OC)c2)C(=O)NCCc2ccc(O)cc2)c1,,"C57BL mice, MPTP/p Parkinson model","75 mg/kg, 8 weeks, rotarod 25 rpm",baseline: MPTP/p vehicle,rotarod latency,increased
CSCC[C@H](N)C(=O)N1CCC[C@H]1C(=O)NCC(=O)NCC(=O)O,"diketopiperazine formation, transition state theory",1-propanol,"70, 80, 90 °C, 0.5% acetic acid",,ΔS‡ at 298.15 K,-19 ± 3 J/(mol·K)
CC(=O)Nc1ccc(OC(=O)CCC(=O)[O][Pt-2]23([O]C(=O)CCC(=O)Oc4ccc(NC(C)=O)cc4)([NH2+][C@@H]4CCCC[C@H]4[NH2+]2)[O]C(=O)C(=O)[O]3)cc1,,"BALB/c mouse, 4T1 tumour, lymph nodes",dose not given,,mature dendritic cells,36.7%
C[C@H](NC(=O)COC(=O)[C@H](C)NC(=O)CO)C(=O)O,,water,"pH 2, 65 °C",,depolymerization rate constant,0.02 h⁻¹
FC(F)(F)c1ccccc1/N=c1\oc2ccccc2cc1-c1ccccc1,,"rat, formalin paw oedema","intraperitoneal, 10 mg/kg, 1 h",,oedema reduction,20.2 ± 1.7%
Cc1ccc(C(=O)Nc2ccc(CP(=O)(O)O)cc2CP(=O)(O)O)cc1NC(=O)c1cccc(NC(=O)Nc2cccc(C(=O)Nc3cc(C(=O)Nc4ccc(CP(=O)(O)O)cc4CP(=O)(O)O)ccc3C)c2)c1,,human plasma,470 µM,,PT,16.7 ± 1.8 s
CC=CC(CC(=O)O)c1ccc(OCc2ccc(-c3cc(OC)ccc3F)cc2)cc1 (stereo not drawn),measured: total GLP-1,"colonic crypt cultures, wild type, mouse, ex vivo","1 µM, 2 h, unit not given",baseline: vehicle,GLP-1 release,1.4 ± 0.2
CCOc1ccc(C[C@@H]2NC(=O)[C@@H](N)CSSC[C@@H](C(=O)N3CCC[C@H]3C(=O)N[C@@H](CC(C)C)C(=O)NCC(N)=O)NC(=O)[C@H](CC(N)=O)NC(=O)[C@H](CCC(N)=O)NC(=O)[C@H]([C@@H](C)CC)NC2=O)cc1,,"Rhinella marina, toad urinary bladder","concentration not given, together with: theophylline",baseline: theophylline alone,increase in maximal response,22%
CN1CCC[C@]1(C)/C=C/S(=O)(=O)NC(=O)Nc1c2c(cc3c1CCC3)CCC2,IL-18 release,"human, whole blood ex vivo","oral, 12.5 mg, 12 h after last dose, multiple ascending dose, together with: LPS and ATP",,inhibition,~90%
CSc1nn(-c2ccccc2)c(NC(=O)/C(C#N)=C(/Nc2ccc(C)cc2)Nc2c(C)n(C)n(-c3ccccc3)c2=O)c1C#N,"real-time PCR, measured: LOX","mouse, formalin test, paw tissue","dose not given, unit not given",baseline: control,mRNA level,1.05 ± 0.19
COc1cc(CN2CCN(c3ccc([N+](=O)[O-])cc3)CC2)c2cc3[n+](cc2c1O)CCc1cc2c(cc1-3)OCO2,"ferric reducing power, FRAP",,"10 µg/mL, 30 min",higher is greater reducing power,FRAP absorbance,0.005 ± 0.73 a.u.
Cn1c(=O)c(=O)n(C)c2cc(S(=O)(=O)NNC(=S)Nc3ccccc3)ccc21,IPGTT,HFD/STZ diabetic male albino mice,"10 mg/kg, 3 h",,blood glucose,86.3 ± 2.48 mg/dL
CC[C@H]1[C@@H](O)[C@@H]2[C@H](CC[C@]3(C)[C@@H]([C@H](C)CCOS(=O)(=O)[O-])CC[C@@H]23)[C@@]2(C)CC[C@@H](O)C[C@@H]12.[Na+],,ob/ob NASH mouse model,"oral, 10 mg/kg once daily, 8 weeks",,liver weight,4.1 ± 0.1 g
O=C1CCN(Cc2ccccc2)CC1C(C[N+](=O)[O-])c1ccccc1 (stereo not drawn),tail immersion test,BALB/c mice,"ip, 50 mg/kg, 0.5 h",,tail flick response,28.3%
O=C(OCc1cccc(O)c1O)c1ccc(O)c(CO)c1,DHE fluorescence,"C57BL/6J mice, aorta","dose not given, together with: angiotensin II infusion",,oxidative stress,inhibited
CCOP(=O)(CC(=O)Nc1ccc(S(=O)(=O)N(CC(N)=O)c2ccc(N(CC(N)=O)S(=O)(=O)c3ccc(OC)cc3)c3ccccc23)cc1)OCC,Morris water maze probe trial,APP/PS1 mice,"intragastric, 40 mg/kg, 60 days, lentivirus intracerebroventricular",baseline: untreated APP/PS1,time in target quadrant,increased
CCCCCCCCCCCCCCCC(=O)OCC(CSC[C@H](N)C(=O)N[C@@H](CO)C(=O)N[C@@H](CCCCN)C(=O)N[C@@H](CCCCN)C(=O)N[C@@H](CCCCN)C(=O)N[C@@H](CCCCN)C(=O)NCCCCCC(=O)N[C@@H](CCCCN)C(=O)N[C@@H](CC(C)C)C(=O)N[C@H](C(=O)N[C@@H](Cc1ccccc1)C(=O)N[C@@H](Cc1ccccc1)C(=O)N[C@@H](Cc1ccc2ccccc2c1)C(=O)O)C(C)C)OC(=O)CCCCCCCCCCCCCCC (stereo partly drawn),measured: thioflavin S plaques,"APP/PS1 mouse, 9 months","intrahippocampal, 100 µM, 300 nL, 5 d",baseline: injected over adjacent side,plaque load ratio,0.13 ± 0.2

# A few entries again:
Compound,test,system,setting,scale,measurement,value
CCCCCCCCCCCCCCCC(=O)OCC(CSC[C@H](N)C(=O)N[C@@H](CO)C(=O)N[C@@H](CCCCN)C(=O)N[C@@H](CCCCN)C(=O)N[C@@H](CCCCN)C(=O)N[C@@H](CCCCN)C(=O)NCCCCCC(=O)N[C@@H](CCCCN)C(=O)N[C@@H](CC(C)C)C(=O)N[C@H](C(=O)N[C@@H](Cc1ccccc1)C(=O)N[C@@H](Cc1ccccc1)C(=O)N[C@@H](Cc1ccc2ccccc2c1)C(=O)O)C(C)C)OC(=O)CCCCCCCCCCCCCCC (stereo partly drawn),measured: thioflavin S plaques,"APP/PS1 mouse, 9 months","intrahippocampal, 100 µM, 300 nL, 5 d",baseline: injected over adjacent side,plaque load ratio,0.13 ± 0.2
CCOc1ccc(C[C@@H]2NC(=O)[C@@H](N)CSSC[C@@H](C(=O)N3CCC[C@H]3C(=O)N[C@@H](CC(C)C)C(=O)NCC(N)=O)NC(=O)[C@H](CC(N)=O)NC(=O)[C@H](CCC(N)=O)NC(=O)[C@H]([C@@H](C)CC)NC2=O)cc1,,"Rhinella marina, toad urinary bladder","concentration not given, together with: theophylline",baseline: theophylline alone,increase in maximal response,22%
CC(C)CN(CC(C)C)C(=O)/C=C/C=C/c1ccc2c(c1)OCO2,elevated plus maze,C57BL/6N mice,"ip, 1 mg/kg, 30 min before test",baseline: total time,time in open arms,45.1 ± 5.7%
